# Measured values from different studies.
# Compare with care: the assays were run in different laboratories. ± marks the error that the study gave.
Structure (SMILES),system,setting,how to read,endpoint,value
CC(=O)CC(c1ccccc1)c1c(O)c2ccccc2oc1=O (centres unmarked),"Sprague-Dawley rat, male",,,unbound intrinsic clearance,16.8 mL/min/kg
NCCOCC(=O)N1CCC[C@H](C(=O)NCc2nc(-c3ccc(C(F)(F)F)cc3)cs2)C1,"Sprague-Dawley rat, male, plasma","intravenous, 1 mg/kg",,unbound hepatic CLint,120 mL/min/kg
Cc1c(Br)cc(NC(=O)CS(=O)(=O)O)cc1Br,"Sprague-Dawley rats, plasma","oral, 30 mg/kg",,unbound Cmax,< 85 nM
CCO[C@H]1CCN(Cc2c(OC)cc(C)c3[nH]ccc23)[C@H](c2ccc(C(=O)O)cc2)C1,"moderate hepatic impairment, plasma","oral, 200 mg single dose, median",,unbound Tmax,2.25 h
CCONC(=O)N1CCC[C@H](C(=O)NCc2nc(-c3ccc(C#N)cc3)cs2)C1,"Sprague-Dawley rat, male, plasma","intravenous, 1 mg/kg",,unbound hepatic CLint,150 mL/min/kg
CCCC[C@@H]1NC(=O)[C@H](Cc2ccc(O)cc2)NC(=O)[C@@H]2CCCN2C(=O)[C@H](CC(=O)O)NC(=O)[C@H](C)NC(=O)[C@H](Cc2ccccc2)NC(=O)[C@@H]2CSCCC(=O)N3CN(CN(C3)C(=O)CCSC[C@@H](C(=O)N[C@@H](CNC(=O)CCOCCOCCOCCOCCOCCOCCOCCOCCOCCOCCOCCOCCn3cc(CCC(=O)NCCC(=O)N(C)CC(=O)N(C)CC(=O)N(C)CC(=O)N(C)CC(=O)N(C)CC(=O)N(C)CC(=O)N(C)CC(=O)N(C)CC(=O)N(C)CC(=O)N(C)CC(=O)N[C@H]4CSCCC(=O)N5CN6CN(C5)C(=O)CCSC[C@H](NC(=O)[C@@H](CC(=O)O)NC(=O)[C@H](Cc5cccc7ccccc57)NC(=O)[C@@H]5CCCN5C4=O)C(=O)N[C@@H](CCSC)C(=O)N[C@@H](CCCCNC(=N)N)C(=O)N[C@@H](CC(=O)O)C(=O)N[C@@H](Cc4c[nH]c5ccccc45)C(=O)N[C@@H](CO)C(=O)N[C@@H]([C@@H](C)O)C(=O)N4CCC[C@H]4C(=O)N4C[C@H](O)C[C@H]4C(=O)N[C@@H](Cc4c[nH]c5ccccc45)C(=O)N[C@H](C(N)=O)CSCCC6=O)nn3)C(N)=O)NC1=O)C(=O)CCSC[C@H](NC(C)=O)C(=O)N[C@@H](CC(C)(C)C)C(=O)N1CCC[C@H]1C(=O)N[C@@H](CCC(=O)O)C(=O)N[C@H](C)C(=O)N1CCC[C@H]1C(=O)N[C@@H](Cc1ccc(O)cc1)C(=O)N2,Sprague-Dawley rat,,,unbound Vdss,1.4 L/kg
O=C(c1ccc(C#Cc2cccc(F)c2)nc1)N1CCC(O)CC1,rats,"i.p., 56.6 mg/kg, 2 h",,unbound brain concentration,1110 ± 34.1 nM
COCC(=O)N1CCC[C@H](C(=O)NCc2nc(-c3ccccc3)cs2)C1,"Sprague-Dawley rat, male, plasma","oral, 3 mg/kg",,unbound AUC,2.1 µM·h
Cc1cc(=O)n(-c2ccccc2)n1C,"Sprague-Dawley rat, male",,,unbound intrinsic clearance,6.43 mL/min/kg
CC(C)(N)COCC(=O)N1CCC[C@H](C(=O)NCc2nc(-c3ccc(C(F)(F)F)cc3)cs2)C1,"Sprague-Dawley rat, male, plasma","oral, 3 mg/kg",,unbound AUC,0.0055 µM·h
CCCC[C@@H]1NC(=O)[C@H](Cc2ccc(O)cc2)NC(=O)[C@@H]2CCCN2C(=O)[C@H](CC(=O)O)NC(=O)[C@H](C)NC(=O)[C@H](Cc2ccccc2)NC(=O)[C@@H]2CSCCC(=O)N3CN(CN(C3)C(=O)CCSC[C@@H](C(=O)N[C@@H](C)C(N)=O)NC1=O)C(=O)CCSC[C@H](NC(C)=O)C(=O)N[C@@H](CC(C)(C)C)C(=O)N1CCC[C@H]1C(=O)N[C@@H](CCC(=O)O)C(=O)N[C@H](CCCCNC(=O)CCc1cn(CCOCCOCCOCCOCCOCCOCCOCCOCCOCCOCCNC(=O)c3cc(C(=O)NCCOCCOCCOCCOCCOCCOCCOCCOCCOCCOCCn4cc(CCC(=O)NCCCC[C@H]5NC(=O)[C@H](CCC(=O)O)NC(=O)[C@@H]6CCCN6C(=O)[C@H](CC(C)(C)C)NC(=O)[C@@H](NC(C)=O)CSCCC(=O)N6CN7CN(C6)C(=O)CCSC[C@H](NC(=O)[C@H](Cc6ccc(O)cc6)NC(=O)[C@@H]6CCCN6C5=O)C(=O)N[C@@H](Cc5ccccc5)C(=O)N[C@@H](C)C(=O)N[C@@H](CC(=O)O)C(=O)N5CCC[C@H]5C(=O)N[C@@H](Cc5ccc(O)cc5)C(=O)N[C@@H](CCCC)C(=O)N[C@H](C(=O)N[C@@H](C)C(N)=O)CSCCC7=O)nn4)cc(C(=O)NCCOCCOCCOCCOCCOCCOCCOCCOCCOCCOCCn4cc(CCC(=O)N[C@H]5CSCCC(=O)N6CN7CN(C6)C(=O)CCSC[C@H](NC(=O)[C@@H](CC(=O)O)NC(=O)[C@H](Cc6cccc8ccccc68)NC(=O)[C@@H]6CCCN6C5=O)C(=O)N[C@@H](CCSC)C(=O)N[C@@H](CCCCNC(=N)N)C(=O)N[C@@H](CC(=O)O)C(=O)N[C@@H](Cc5c[nH]c6ccccc56)C(=O)N[C@@H](CO)C(=O)N[C@@H]([C@@H](C)O)C(=O)N5CCC[C@H]5C(=O)N5C[C@H](O)C[C@H]5C(=O)N[C@@H](Cc5c[nH]c6ccccc56)C(=O)N[C@H](C(N)=O)CSCCC7=O)nn4)c3)nn1)C(=O)N1CCC[C@H]1C(=O)N[C@@H](Cc1ccc(O)cc1)C(=O)N2,Sprague-Dawley rat,,,unbound clearance,51 mL/min/kg
COc1ccc([C@@H]2Sc3ccccc3N(CCN(C)C)C(=O)[C@@H]2OC(C)=O)cc1,"Sprague-Dawley rat, male",,,unbound intrinsic clearance,2590 mL/min/kg
Cn1cncc1[C@@](N)(c1ccc(Cl)cc1)c1ccc2c(c1)c(-c1cccc(Cl)c1)cc(=O)n2C,"cancer patients, moderate hepatic impairment, plasma",200 mg twice daily,,unbound fraction,0.0093
CCCC[C@@H]1NC(=O)[C@H](Cc2ccc(O)cc2)NC(=O)[C@@H]2CCCN2C(=O)[C@H](CC(=O)O)NC(=O)[C@H](C)NC(=O)[C@H](Cc2ccccc2)NC(=O)[C@@H]2CSCCC(=O)N3CN(CN(C3)C(=O)CCSC[C@@H](C(=O)N[C@@H](C)C(N)=O)NC1=O)C(=O)CCSC[C@H](NC(C)=O)C(=O)N[C@@H](CC(C)(C)C)C(=O)N1CCC[C@H]1C(=O)N[C@@H](CCC(=O)O)C(=O)N[C@H](CCCCNC(=O)CCc1cn(CCOCCOCCOCCOCCOCCC(=O)N[C@H]3CSCCC(=O)N4CN5CN(C4)C(=O)CCSC[C@H](NC(=O)[C@@H](CC(=O)O)NC(=O)[C@H](Cc4cccc6ccccc46)NC(=O)[C@@H]4CCCN4C3=O)C(=O)N[C@@H](CCSC)C(=O)N[C@@H](CCCCNC(=N)N)C(=O)N[C@@H](CC(=O)O)C(=O)N[C@@H](Cc3c[nH]c4ccccc34)C(=O)N[C@@H](CO)C(=O)N[C@@H]([C@@H](C)O)C(=O)N3CCC[C@H]3C(=O)N3C[C@H](O)C[C@H]3C(=O)N[C@@H](Cc3c[nH]c4ccccc34)C(=O)N[C@H](C(N)=O)CSCCC5=O)nn1)C(=O)N1CCC[C@H]1C(=O)N[C@@H](Cc1ccc(O)cc1)C(=O)N2,Sprague-Dawley rat,,,unbound Vdss,2.8 L/kg
Cc1cc(C)c(CNC(=O)c2cc(Cl)c3c(c2C)O[C@@](C)([C@H]2CC[C@H](N(C)C)CC2)O3)c(=O)[nH]1,moderate hepatic impairment,"oral, dose not given",relative to: normal hepatic function,unbound AUCss increase,29%
CCCC[C@@H]1NC(=O)[C@H](Cc2ccc(O)cc2)NC(=O)[C@@H]2CCCN2C(=O)[C@H](CC(=O)O)NC(=O)[C@H](C)NC(=O)[C@H](Cc2ccccc2)NC(=O)[C@@H]2CSCCC(=O)N3CN(CN(C3)C(=O)CCSC[C@@H](C(=O)N[C@@H](C)C(N)=O)NC1=O)C(=O)CCSC[C@H](NC(C)=O)C(=O)N[C@@H](CC(C)(C)C)C(=O)N1CCC[C@H]1C(=O)N[C@@H](CCC(=O)O)C(=O)N[C@H](CCCCNC(=O)CCc1cn(CCOCCOCCOCCOCCOCCOCCOCCOCCOCCOCCNC(=O)CCOCCN(CCOCCC(=O)NCCOCCOCCOCCOCCOCCOCCOCCOCCOCCOCCn3cc(CCC(=O)NCCCC[C@H]4NC(=O)[C@H](CCC(=O)O)NC(=O)[C@@H]5CCCN5C(=O)[C@H](CC(C)(C)C)NC(=O)[C@@H](NC(C)=O)CSCCC(=O)N5CN6CN(C5)C(=O)CCSC[C@H](NC(=O)[C@H](Cc5ccc(O)cc5)NC(=O)[C@@H]5CCCN5C4=O)C(=O)N[C@@H](Cc4ccccc4)C(=O)N[C@@H](C)C(=O)N[C@@H](CC(=O)O)C(=O)N4CCC[C@H]4C(=O)N[C@@H](Cc4ccc(O)cc4)C(=O)N[C@@H](CCCC)C(=O)N[C@H](C(=O)N[C@@H](C)C(N)=O)CSCCC6=O)nn3)CCOCCC(=O)NCCOCCOCCOCCOCCOCCOCCOCCOCCOCCOCCn3cc(CCC(=O)N[C@H]4CSCCC(=O)N5CN6CN(C5)C(=O)CCSC[C@H](NC(=O)[C@@H](CC(=O)O)NC(=O)[C@H](Cc5cccc7ccccc57)NC(=O)[C@@H]5CCCN5C4=O)C(=O)N[C@@H](CCSC)C(=O)N[C@@H](CCCCNC(=N)N)C(=O)N[C@@H](CC(=O)O)C(=O)N[C@@H](Cc4c[nH]c5ccccc45)C(=O)N[C@@H](CO)C(=O)N[C@@H]([C@@H](C)O)C(=O)N4CCC[C@H]4C(=O)N4C[C@H](O)C[C@H]4C(=O)N[C@@H](Cc4c[nH]c5ccccc45)C(=O)N[C@H](C(N)=O)CSCCC6=O)nn3)nn1)C(=O)N1CCC[C@H]1C(=O)N[C@@H](Cc1ccc(O)cc1)C(=O)N2,Sprague-Dawley rat,,,unbound clearance,51 mL/min/kg
CCOCC(=O)N1CCC[C@H](C(=O)NCc2nc(-c3ccc(C)nc3)cs2)C1,"Sprague-Dawley rat, male, plasma","oral, 3 mg/kg",,unbound AUC,2.2 µM·h

# Some of these lines once more:
Structure (SMILES),system,setting,how to read,endpoint,value
COCC(=O)N1CCC[C@H](C(=O)NCc2nc(-c3ccccc3)cs2)C1,"Sprague-Dawley rat, male, plasma","oral, 3 mg/kg",,unbound AUC,2.1 µM·h
CCCC[C@@H]1NC(=O)[C@H](Cc2ccc(O)cc2)NC(=O)[C@@H]2CCCN2C(=O)[C@H](CC(=O)O)NC(=O)[C@H](C)NC(=O)[C@H](Cc2ccccc2)NC(=O)[C@@H]2CSCCC(=O)N3CN(CN(C3)C(=O)CCSC[C@@H](C(=O)N[C@@H](CNC(=O)CCOCCOCCOCCOCCOCCOCCOCCOCCOCCOCCOCCOCCn3cc(CCC(=O)NCCC(=O)N(C)CC(=O)N(C)CC(=O)N(C)CC(=O)N(C)CC(=O)N(C)CC(=O)N(C)CC(=O)N(C)CC(=O)N(C)CC(=O)N(C)CC(=O)N(C)CC(=O)N[C@H]4CSCCC(=O)N5CN6CN(C5)C(=O)CCSC[C@H](NC(=O)[C@@H](CC(=O)O)NC(=O)[C@H](Cc5cccc7ccccc57)NC(=O)[C@@H]5CCCN5C4=O)C(=O)N[C@@H](CCSC)C(=O)N[C@@H](CCCCNC(=N)N)C(=O)N[C@@H](CC(=O)O)C(=O)N[C@@H](Cc4c[nH]c5ccccc45)C(=O)N[C@@H](CO)C(=O)N[C@@H]([C@@H](C)O)C(=O)N4CCC[C@H]4C(=O)N4C[C@H](O)C[C@H]4C(=O)N[C@@H](Cc4c[nH]c5ccccc45)C(=O)N[C@H](C(N)=O)CSCCC6=O)nn3)C(N)=O)NC1=O)C(=O)CCSC[C@H](NC(C)=O)C(=O)N[C@@H](CC(C)(C)C)C(=O)N1CCC[C@H]1C(=O)N[C@@H](CCC(=O)O)C(=O)N[C@H](C)C(=O)N1CCC[C@H]1C(=O)N[C@@H](Cc1ccc(O)cc1)C(=O)N2,Sprague-Dawley rat,,,unbound Vdss,1.4 L/kg
